Assay results gathered from unrelated publications.
Numbered parts are unrelated; each lists some results of a single study. “And” joins repeats or separate records; there may be more than shown.

Sample 1 — cell line: HCC1569; method: in-cell western; measured: CDK1 phospho-Thr14
| Compound | IC80 |
| --- | --- |
| Cc1ccc(O)c(C)c1-c1cnc2[nH]c(-c3cnc(N4CCC(CN5CCN(c6ccc(N7CCC(=O)NC7=O)cc6F)CC5)CC4)nc3)cc2c1C#N | 640 nM |
| Cc1ccc(O)c(C)c1-c1cnc2[nH]c(-c3cnc(N4CCC(CN5CCN(c6ccc7c8c(cccc68)C(=O)N7C6CCC(=O)NC6=O)CC5)CC4)nc3)cc2c1C#N (racemic) | > 1000 nM |
| Cc1ccc(O)c(C)c1-c1cnc2[nH]c(-c3cnc(N4CCC(CN5CCN(c6ccc(C(=O)NC7CCC(=O)NC7=O)c(F)c6)CC5)CC4)nc3)cc2c1C#N (racemic) | 395 nM |

Sample 2 — organism: Staphylococcus aureus; strain: USA300; concentration: 2 x MIC
Structure (SMILES): CCCCC[C@@H]1CC(=O)N[C@@H](C(C)C)C(=O)N[C@H](CCCNC(=N)N)C(=O)N[C@@H](CO)C(=O)NCC(=O)N(C)[C@H](Cc2ccccc2)C(=O)N[C@@H](CC(C)C)C(=O)N[C@H](CCCNC(=N)N)C(=O)N[C@@H](CC(N)=O)C(=O)N[C@H](C(C)C)C(=O)N[C@H](Cc2c[nH]c3ccccc23)C(=O)NCCCC(=O)O1
| setting | viable cells |
| --- | --- |
| 120 min | 1500 CFU/mL and 1000 CFU/mL and 800 CFU/mL |
| 360 min | 400 CFU/mL and 500 CFU/mL and 600 CFU/mL |
| 180 min | 700 CFU/mL and 1000 CFU/mL and 1400 CFU/mL |
| 15 min | 3600 CFU/mL and 4000 CFU/mL and 3500 CFU/mL |
| 60 min | 1400 CFU/mL and 800 CFU/mL and 1000 CFU/mL |

Sample 3
Structure (SMILES): C=CCN1C(=O)C(O)(C(=O)O)Oc2cc(F)ccc21 (centres unmarked)
| organism | test | system | setting | how to read | inhibition |
| --- | --- | --- | --- | --- | --- |
| Echinochloa crus-galli | fresh weight | – | 150 g ai/ha, post-emergence treatment | – | 40.1% and 44.7% and 39.3% |
| Oryza sativa | fresh weight | – | soil surface spray, 150 g ai/ha, 21 days, pre-emergence crop safety | – | 2% and 3% and 4.5% |
| Arabidopsis thaliana | root length | Col-0, seedlings | 100 µg/mL | reference: water control | 52.3% |
| Arabidopsis thaliana | root length | Col-0 | 6.25 µg/mL, 7 days, seed germination, dark | – | 17.6% |
| Arabidopsis thaliana | hypocotyl length | Col-0 | 50.0 µg/mL, 7 days, seed germination, dark | – | 26.1% |

Sample 4 — species: Crbn I391V mouse, MC-38 tumour
SMILES: Cn1cc(-c2cccc(CN3CCC4(CC3)COc3c4ccc4c3CN([C@H]3CCC(=O)NC3=O)C4=O)c2)cn1
| setting | tumour volume |
| --- | --- |
| 30 mg/kg, day 23, together with: anti-LAG3 antibody 10 mg/kg weekly | 792 mm3 and 356 mm3 and 1380 mm3 and 1030 mm3 and 440 mm3 and 36.6 mm3 |
| 30 mg/kg, day 21, together with: anti-LAG3 antibody 10 mg/kg weekly | 63.2 mm3 and 353 mm3 and 2110 mm3 and 727 mm3 and 1460 mm3 and 1350 mm3 and 350 mm3 |
| oral, daily, 30 mg/kg, day 1, anti-PD1 combination study | 95.6 mm3 and 105 mm3 and 82 mm3 and 92.8 mm3 and 100 mm3 |
| 30 mg/kg, day 1, together with: anti-LAG3 antibody 10 mg/kg weekly | 67.8 mm3 and 75.1 mm3 and 90.1 mm3 and 83.9 mm3 |
| 30 mg/kg, day 41, together with: anti-LAG3 antibody 10 mg/kg weekly | 323 mm3 |
| oral, 30 mg/kg once daily, day 3 | 151 mm3 and 117 mm3 and 126 mm3 and 81.5 mm3 and 148 mm3 |
| 30 mg/kg, day 44, together with: anti-LAG3 antibody 10 mg/kg weekly | 640 mm3 |
